Published values gathered from unrelated publications.
Every numbered part comes from another study and shows a few of its results, in no order. Substitutions count along the parent as printed.

Block 1
Target: CCNA2, cyclin fold, Cln2 fusion (human)
Method: yeast growth competition, sequencing
Medium: yeast
Setting: strong parent motif
Relative to: not given
Direction: higher = stronger binding
Parent: BRCA2 docking peptide (human); PSIKRNLLNEFDR; partner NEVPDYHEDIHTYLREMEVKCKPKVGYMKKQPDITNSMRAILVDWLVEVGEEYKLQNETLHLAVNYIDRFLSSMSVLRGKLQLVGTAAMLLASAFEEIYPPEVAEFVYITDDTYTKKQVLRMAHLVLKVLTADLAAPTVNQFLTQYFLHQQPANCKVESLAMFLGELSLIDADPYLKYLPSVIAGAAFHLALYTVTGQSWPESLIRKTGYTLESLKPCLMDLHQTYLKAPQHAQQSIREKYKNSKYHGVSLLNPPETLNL
Change	normalised enrichment score
PSIKRELLNEFDR [N6E]	2.25
PSIKRALLNEFDR [N6A]	4.47
PSIKRNLLNEFLR [D12L]	2.54
PSIKENLLNEFDR [R5E]	0.374
PSIKRNLLNSFDR [E10S]	2.53
PSIKCNLLNEFDR [R5C]	1.09
PSIKRNLLNYFDR [E10Y]	3.42
PSIKRNLLNENDR [F11N]	-0.251
PSIKRNLLREFDR [N9R]	5.61
PSIKRNLDNEFDR [L8D]	0.364
PSIKRNLLNEFWR [D12W]	3.64
PPIKRNLLNEFDR [S2P]	4.58
PSIKLNLLNEFDR [R5L]	0.49
PSIKRNLLNEFDE [R13E]	4.51
PSIKRNLWNEFDR [L8W]	1.16
PSIKRNLLNEFDD [R13D]	4.94
PSIKRNLLNEFDK [R13K]	4.77
PSIKRNLLNKFDR [E10K]	0.53

Block 2
Target: Protein max, full length (MAX, Homo sapiens, UniProt P61244-2, residues 1-151)
Method: protein-binding microarray
Form: double-stranded DNA, one strand shown
Medium: in vitro
Tested at: not given
Setting: k-mer, scored over probes, only values ≥0.25
Direction: higher = stronger binding
Strand	E-score
CGGTAGCA	0.32
ACCCACAT	0.29
ATGTGATG	0.257
CACGCGTG	0.467
CGTGGCAC	0.416
ACGCATTG	0.304
ATGTGTTC	0.298
CGCACACC	0.271
CAATCATG	0.313
AATGTGCG	0.346
GCGTGGGA	0.441
CAACGAGG	0.291
CTGGCCAC	0.289
GCATGCCA	0.374
AATACACG	0.339
GCTTAACA	0.271
AACGTGTA	0.381
CGCGTGTC	0.456
ACGCGCTG	0.316
CAACGTGA	0.444
ACGTGGAC	0.451
ACATGGCC	0.37
GCTGAGCA	0.278
AGGCGGGG	0.276

Block 3
Target: Histone acetyltransferase KAT6A, both winged helices, GST fusion (KAT6A, Homo sapiens, UniProt Q92794, residues 1-181)
Method: protein binding microarray
Form: double-stranded DNA, one strand shown
Medium: in vitro
Tested at: not given
Setting: 8-mer, flanks averaged, mean of 2 arrays, mostly near background
Relative to: not given
Direction: higher = stronger binding
Target sequence (chain): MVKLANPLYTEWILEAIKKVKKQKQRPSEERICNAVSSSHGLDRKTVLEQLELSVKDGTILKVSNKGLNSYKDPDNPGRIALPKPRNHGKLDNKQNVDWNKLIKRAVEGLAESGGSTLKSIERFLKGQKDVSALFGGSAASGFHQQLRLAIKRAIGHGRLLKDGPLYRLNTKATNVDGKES
Strand	E-score
TCATTGCA	-0.207
GAAGCCCA	-0.119
ATTATAGC	-0.12
AACTTTGC	-0.00054
AGTCTTGC	-0.015
ACTCAAGG	-0.159
ACTCCACG	-0.0537
AGGGTACA	-0.267
ACATGTAC	-0.0214
ATCCCAAC	-0.233
AGTCGACA	-0.142
ACGAAGTA	-0.178
ACTGTTGG	-0.172
AACAACTA	-0.154
CATTGGCA	-0.179
GGCGCAGA	0.176
TAGACTAA	-0.109
ATATCAAA	-0.0827
ATACGCAT	0.065
AAAATTCT	0.0657
CATCGCTC	0.109
AGGTTTCG	0.0512
ATAAGGGC	-0.188
GTCGGTCA	0.0756
AGGGACTG	-0.146

Block 4
Target: ABI1, truncated, D143A, DHFR fusion (Arabidopsis thaliana)
Method: DHFR PCA, deep sequencing
Medium: yeast
Setting: methotrexate growth selection, single substitutions
Added: (+)-ABA 17 µM
Relative to: wild-type fitted maximum
Direction: higher = stronger binding
Parent: PYL1, truncated, DHFR fusion (Arabidopsis thaliana); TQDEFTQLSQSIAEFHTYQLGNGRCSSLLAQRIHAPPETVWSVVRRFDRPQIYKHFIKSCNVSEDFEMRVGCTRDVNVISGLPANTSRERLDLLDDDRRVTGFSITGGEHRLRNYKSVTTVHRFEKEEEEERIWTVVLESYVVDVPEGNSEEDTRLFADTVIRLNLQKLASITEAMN; partner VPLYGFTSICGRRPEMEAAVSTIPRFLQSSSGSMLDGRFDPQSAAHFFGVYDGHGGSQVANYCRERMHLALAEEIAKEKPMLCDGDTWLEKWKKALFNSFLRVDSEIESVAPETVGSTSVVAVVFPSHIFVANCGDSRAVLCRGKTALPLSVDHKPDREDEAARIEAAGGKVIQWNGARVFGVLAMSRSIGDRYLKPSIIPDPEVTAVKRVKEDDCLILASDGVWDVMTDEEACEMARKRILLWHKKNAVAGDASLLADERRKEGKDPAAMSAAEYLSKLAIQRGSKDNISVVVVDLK
Change	relative binding score [%]
G21W	64.2
H110E	3.53
R163F	-1.28
T101D	-0.229
K58W	26.2
L20Y	76.9
F15E	13.6
P37N	16.3
V70W	13.3
A84N	15.3
N149Y	2.45
K126H	90.4
E174A	59.3
L112R	-3
L20I	83.8
Y18P	81.4

Block 5
Target: Phosphate system positive regulatory protein PHO4, full length, GST-tagged (PHO4, Saccharomyces cerevisiae, UniProt P07270, residues 1-312)
Method: competition protein-binding microarray
Form: double-stranded DNA, one strand shown
Medium: in vitro
Tested at: 2 µM
Setting: whole 60-bp probe, lowest competitor level
Added: Cbf1 competitor, 0.05 µM
Direction: higher = stronger binding
Shared flanks, not repeated: … GTCTTGATTCGCTTGACGCTGCTG
Residues (chain): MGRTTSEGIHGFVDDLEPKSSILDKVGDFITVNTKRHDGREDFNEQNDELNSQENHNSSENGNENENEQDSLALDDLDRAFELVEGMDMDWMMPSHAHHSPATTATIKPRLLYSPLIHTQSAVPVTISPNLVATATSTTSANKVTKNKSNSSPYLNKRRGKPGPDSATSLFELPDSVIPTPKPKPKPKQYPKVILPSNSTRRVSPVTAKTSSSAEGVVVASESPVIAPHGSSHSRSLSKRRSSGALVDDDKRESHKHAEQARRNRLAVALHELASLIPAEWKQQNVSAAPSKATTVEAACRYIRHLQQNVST
Strand	fluorescence intensity [a.u.]
CTTTCCCGATCTTGTGGAGTGGGTGTAGCACATTTG	5210
CTTCTGTAAATTTGCCGGGTGGGTGGACGCGCCCCG	4950
TGCGCAACAACTTGGGAGGTGGGTGTATGTCTAGAA	5230
CCAGTAACTTCGTTGACCGTGATGGTCCGTTCATTT	4780
TGCGCAACAACTTGTATTGTGGGTGTATGTCTAGAA	4670
CTTCTGTAAATTTGTCACTTCACTTGACGCGCCCCG	2780
CACACCGCGAGAAACATCGTGGAAGATTACGGAGCT	7490
AGAAAGAAAGACGACCACGTGACGGGAACGAAGAGC	13000
GATTCAGATCTGAGACTTGGGTAGCATTTGACAGAC	3510
CTAAACTACGCCTGGCACGTGGGTAATGAAGTATAC	16400
CTTTCCCGATCTTGTAAAGTGGGTGTAGCACATTTG	4370
CTTCAACAACATCGGCACGGGAGTGGGATTTAGCGG	9820
GAACAGTGCCTGCACCTCGTGTATCGCGATGCGGAG	10700
CTTTCCCGATCTTGATAAGTGGGTGTAGCACATTTG	4790
CAAATCGAAACCACCATCGTGTCCTTCCTTGGGAAC	9080
CGGGGTTAAGTTTTTCACGTGCGTTGCTTGCAGCAG	15300
GATTTTGTTCTTTGTCATGTGATTTTAATCTGTCAA	6080
